Measured values pooled from the literature.
A part holds a random share of what one study measured. Positions count from the first letter of the parent shown.

Block 1
Target: Sal-like protein 4, full length isoform A (SALL4, Homo sapiens, UniProt Q9UJQ4, residues 1-1053)
Chain of UniProt Q9UJQ4 (whole entry, looked up): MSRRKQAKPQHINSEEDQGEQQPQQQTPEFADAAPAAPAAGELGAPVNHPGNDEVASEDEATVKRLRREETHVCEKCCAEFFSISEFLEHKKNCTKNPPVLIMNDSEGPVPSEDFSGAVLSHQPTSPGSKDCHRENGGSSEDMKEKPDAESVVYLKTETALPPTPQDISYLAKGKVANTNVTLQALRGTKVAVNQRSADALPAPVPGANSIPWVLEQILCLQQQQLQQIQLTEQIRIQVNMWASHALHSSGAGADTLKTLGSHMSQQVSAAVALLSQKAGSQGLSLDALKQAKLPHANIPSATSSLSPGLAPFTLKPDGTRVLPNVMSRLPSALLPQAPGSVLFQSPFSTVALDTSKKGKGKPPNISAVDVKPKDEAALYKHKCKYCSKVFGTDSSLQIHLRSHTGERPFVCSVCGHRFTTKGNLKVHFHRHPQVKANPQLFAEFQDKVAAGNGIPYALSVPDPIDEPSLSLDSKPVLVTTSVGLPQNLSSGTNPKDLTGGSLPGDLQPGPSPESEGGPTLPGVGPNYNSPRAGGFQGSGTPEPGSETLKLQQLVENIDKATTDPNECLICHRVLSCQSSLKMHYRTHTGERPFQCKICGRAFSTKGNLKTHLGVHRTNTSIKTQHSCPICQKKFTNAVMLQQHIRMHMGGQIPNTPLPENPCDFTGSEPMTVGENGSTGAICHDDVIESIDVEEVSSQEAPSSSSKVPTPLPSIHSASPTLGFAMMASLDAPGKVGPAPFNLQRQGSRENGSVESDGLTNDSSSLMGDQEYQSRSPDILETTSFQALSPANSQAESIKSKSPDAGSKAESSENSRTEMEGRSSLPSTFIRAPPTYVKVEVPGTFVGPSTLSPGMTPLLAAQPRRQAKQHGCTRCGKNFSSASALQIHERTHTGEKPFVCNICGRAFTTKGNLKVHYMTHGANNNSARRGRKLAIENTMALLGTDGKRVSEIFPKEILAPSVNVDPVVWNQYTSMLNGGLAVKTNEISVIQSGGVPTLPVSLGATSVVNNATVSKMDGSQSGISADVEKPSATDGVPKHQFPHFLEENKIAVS
Technique: universal PBM
Molecule type: double-stranded DNA, one strand shown
Sample: in vitro
Concentration: 600 nM
Setting: 8-mer, flanks averaged, mean of replicates
Direction: higher = stronger binding
Measurement: E-score
ATAACGTC: 0.296
CAAGCACG: -0.106
CTGTGAAA: 0.165
CGTCTGAC: -0.165
AGTGAGAT: -0.0133
ACCCCCCT: -0.407
CCCTCAAC: -0.233
GCACTCAC: -0.218
AGGAGTTA: 0.15
CCCCTGAA: -0.0947
ACCACGGA: -0.336
CACAAGGC: -0.145
AGGGTAAG: 0.0292
AACTGGTA: -0.118
CCAGTATC: -0.116
TCATCAGA: 0.127
GGTCTACA: -0.00513
TCGGCAGA: -0.162
AGGGCTTA: -0.0914

Block 2
Target: Histone acetyltransferase KAT6A, winged helix 2, GST fusion (KAT6A, Homo sapiens, UniProt Q92794, residues 85-181)
Technique: protein binding microarray
Molecule type: double-stranded DNA, one strand shown
Sample: in vitro
Concentration: not given
Setting: 8-mer, flanks averaged, mean of 2 arrays, mostly near background
Relative to: not given
Direction: higher = stronger binding
Measurement: E-score
Construct (chain): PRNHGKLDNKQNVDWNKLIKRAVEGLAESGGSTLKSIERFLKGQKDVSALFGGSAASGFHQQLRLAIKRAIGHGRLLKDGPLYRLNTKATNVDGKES
AGCAGATG: 0.0573
AAGCCACC: -0.161
GACTCATC: -0.249
CCTAAGAC: -0.305
GATCTGTA: -0.288
AATGCGAA: 0.0919
CGGCTCCC: 0.0486
CTGACGTC: -0.000325
TATGCAGA: 0.0861
ACCTAAGT: -0.102
ATCCAAAT: -0.159
ATAGCTAC: -0.0461
CTAAATTC: 0.0542
GCTCACAC: -0.0543
CGCAGAAC: 0.177
GCAATGCC: 0.00677

Block 3
Target: Fragile X messenger ribonucleoprotein 1, C-terminal low-complexity region (Fmr1, Mus musculus, UniProt P35922)
Technique: RNA Bind-n-Seq
Molecule type: RNA
Sample: in vitro
Concentration: 200 nM
Setting: whole 134-nt RNA, ends assumed
Together with: 150 mM KCl
Relative to: input library
Direction: higher = stronger binding
Measurement: log2 enrichment
Constant ends, left off below: GGGAGUUCUACAGUCCGACGAUC … UGGAAUUCUCGGGUGUCAAGG
CUUUGGUUGACAGGAAGUUCCUUUUCCAGGCAGGUCCCGUUGCCACCUCCUGCUCACUCAGUCCCGGGCUCUGCCGAGUGGUCCUGGGAA: 0.391
CCUCAAGUCCUGUGCUACACAUCGUAUGUACCGAAUCGGGAAGGAAGGAAGGAAAGUAUUAUGUUACGCCGUUCGGAUCUGCACUUCCAG: 0.184
CCUCAAGUCCUGUGCUACACAUCGUAUGUACCGAAUCGGGAGGGAGGGAGGGAAAGUAUUAUGUUACGCCGUUCGGAUCUGCACUUCCAG: 1.28
AAGUCCUGUGCUACACAUCGUAUGUACCGAAUCGGUUUUUGGUUUUUGGUUUUUGGAAAGUAUUAUGUUACGCCGUUCGGAUCUGCACUU: -0.835
UUUGAGGUCAAACGCCGCGGGGAACUGCAGCUGAUUAAGAUCUUCCAAUCCUCGGUGUUUGAGGCCUUCCUCAAGGGCAGCACGCUGGAA: -1.84
UGGCAGGUGGAUUUUGUUUAUUUUUUUAGCUCAUUUCCAGGGGUGGGAAUUUUUUUUUAAUAUGUGUCAUGAAUAAAGUUGUUUUUGAAA: 0.104
GUCCUGUGCUACACAUCGUAUGUACCGAAUCAAACCCAAACCCCCAAACCCCCCCAAAAAAGUAUUAUGUUACGCCGUUCGGAUCUGCAC: -0.17
UCAAGUCCUGUGCUACACAUCGUAUGUACCGAAUCGGGGUUGGGUUGGUUGGGGAAAGUAUUAUGUUACGCCGUUCGGAUCUGCACUUCC: 1.19
UUCCCUGUACCGGCAGAGUUCACAAACACAUUUGAAGAGGCUUUUUCUCAGGAUUCUUAACCUUCCCAAAGGAAGUCCCAUGGAUGGGUU: -1.02
AUGAAGAUGAAGAAGAGGAUGAUGAGGACGAGGAUGACGACGACGACGAAGAUGAUGAAGAUGAUGAUGAUGAAGAUGAUGAGGAGGAGG: 0.201

Block 4
Target: RNA binding protein fox-1 homolog 2, RRM domain, GST-SBP tag (RBFOX2, Homo sapiens, UniProt O43251-10, residues 100-194)
Technique: RNA Bind-n-Seq
Molecule type: RNA
Sample: in vitro
Concentration: 365 nM
Setting: natural RNA segment, single round, ends assumed
Relative to: no-protein control
Direction: higher = stronger binding
Measurement: RBNS enrichment (R)
Constant ends, left off below: GGGAGUUCUACAGUCCGACGAUC … UGGAAUUCUCGGGUGCCAA
Residues (chain): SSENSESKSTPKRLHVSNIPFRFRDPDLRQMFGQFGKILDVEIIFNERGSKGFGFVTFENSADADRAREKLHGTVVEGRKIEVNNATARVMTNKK
GCCUCUCUGGAAUCUCCAUCCCAACCAUUUCCUGUUCUUGGGAAGGUCCUACGGGCUUCAGAAUCUUAAGACCACACCUUGACUCACCUCUAACCCACGCCGGGAUAUCC: 0.372
AAAAGACAAUGUUAGUAAACUACAGGGAAGCACUGGAAGGGUAAAGCUCAGGUUAAUACAAGCUGAUUGUUCAGUGUCUUAAGACUUAUGCUGUUUCCAAAAGGCCAAAU: 0.451
UCCAGUAAGCAGGCAGGCCCAGAGACUGCUUUCUCAGCACCGCACAGAUCUCAGUGGGUCACAUAACUUGCUUUACACUCAUCUUGUUGUGUCAGAAAUAAAGUGUUCGU: 0.453
GAAGGCUGUCAAACUCAAAUAUCUUUGCAAACAGUUUGAAUACUGUGAAUUCAUUACGAAGAAUGUUCGAGAGAAAGCAGGGGUCUAAUCCAAAAGAAAUGUCAUUAACC: 0.498
AAUUCCAAUGUUAUAGUGAAGUGUAAUGAAAAACAUCUCUAGGAAUGUGCUUUAACCACUGCUGCAAAAGAGACAAGUCUGCAUUUAUUUGUGCAGGAAACCAGCCAUUU: 0.656
AACUUUGCUUUCAGUUUCUUGGUAAGCAACAGCUGUCUGGCAAUGCUCAAGGAAUCCACAUCUGGUGGGUAGGAGAAGAGAGACCCUGUUGCUAUAGUACAGAGACAAGU: 0.669
UUUUUGUAAUUUAUUUUUUAAGUGGGCUCCUGACAAUACUGUAUCAGAUGUGAAGCCUGGAGCUUUCCUGAUGAUGCUGGCCCUACAGUACCCCCAUGAGGGGAUUCCCU: 0.626
AUUGUUAACUUUUUAUUGUCAUCAAAAGUUCAUAAAAGUCCUAUUAAUCCCCAUAUUCUUCUACUGCCCUUAACUCUGGUAUACACCAAAAAGAAAUCUUUACUUUCCUU: 1.06
UUGAGAAAAGGUUGUAGGAUGUGUCACAAGAGACUUUUGACAAUUCUGAGGAACCUUGUGUCCAGUUGUUACAAAGUUUAAGCUUUGAACCUAACCUGCAUCCCAUUUCC: 0.305
UUUGUGAGUUCAGCACAGGGCCCAGAAGCUGCUGGUUUUAAAUAUUUACUUUCCCAGGAGGUGGGUUUCUUCAGGUGUUUGUUUAAAGAGGGCUGUCACAGGUGAAUGGU: 1.49
UUUUACAGAAGAAACUAAAAGACAAAGGAAUAUUAAGCACCUGAGGGGUUUUUGUUUGAUUGAUUGUUUGUUUUUGGUAACUUUACAUCAAAUACACAUUUUAUGCUAGA: 0.571
GUCAUUAACAAGAAACAGGAUAUGCUUUAAGACAGAAUUCACUGUCUGUUGCUUCAGUAAAAGGACCUCGGGGAAUAAAACAUUUCUCUCUUAUAUGCCAGAAUGUAGGC: 0.772

Block 5
Target: CCNE2, cyclin fold, Cln2 fusion (human)
Technique: yeast growth competition, sequencing
Sample: yeast
Setting: strong parent motif
Relative to: not given
Direction: higher = stronger binding
Measurement: normalised enrichment score
Starting sequence: ANKRD17 docking peptide (human); PSVRRQLFVTVVK
PSVARQLFVTVVK [R4A]: 1.91
PSVRAQAFVTVVK [R5A L7A]: 0.419
PSARRQLFVTVVK [V3A]: 2.62
ASVRRQLFVTVVK [P1A]: 3.63
PSVRRALFVTVVK [Q6A]: 1.51
PSVRRQLAVTVVK [F8A]: 1.06
PSVRRQLFATVVK [V9A]: 3.41
PSVRRQLLVTVVK [F8L]: 0.744
PSVRKQLFVTVVK [R5K]: 0.98
PSVRRQAFVTVVK [L7A]: 1.55

A few entries again (block 4):
AAAAGACAAUGUUAGUAAACUACAGGGAAGCACUGGAAGGGUAAAGCUCAGGUUAAUACAAGCUGAUUGUUCAGUGUCUUAAGACUUAUGCUGUUUCCAAAAGGCCAAAU: 0.451
UCCAGUAAGCAGGCAGGCCCAGAGACUGCUUUCUCAGCACCGCACAGAUCUCAGUGGGUCACAUAACUUGCUUUACACUCAUCUUGUUGUGUCAGAAAUAAAGUGUUCGU: 0.453
GAAGGCUGUCAAACUCAAAUAUCUUUGCAAACAGUUUGAAUACUGUGAAUUCAUUACGAAGAAUGUUCGAGAGAAAGCAGGGGUCUAAUCCAAAAGAAAUGUCAUUAACC: 0.498
AAUUCCAAUGUUAUAGUGAAGUGUAAUGAAAAACAUCUCUAGGAAUGUGCUUUAACCACUGCUGCAAAAGAGACAAGUCUGCAUUUAUUUGUGCAGGAAACCAGCCAUUU: 0.656
AACUUUGCUUUCAGUUUCUUGGUAAGCAACAGCUGUCUGGCAAUGCUCAAGGAAUCCACAUCUGGUGGGUAGGAGAAGAGAGACCCUGUUGCUAUAGUACAGAGACAAGU: 0.669
UUUUUGUAAUUUAUUUUUUAAGUGGGCUCCUGACAAUACUGUAUCAGAUGUGAAGCCUGGAGCUUUCCUGAUGAUGCUGGCCCUACAGUACCCCCAUGAGGGGAUUCCCU: 0.626
AUUGUUAACUUUUUAUUGUCAUCAAAAGUUCAUAAAAGUCCUAUUAAUCCCCAUAUUCUUCUACUGCCCUUAACUCUGGUAUACACCAAAAAGAAAUCUUUACUUUCCUU: 1.06
UUGAGAAAAGGUUGUAGGAUGUGUCACAAGAGACUUUUGACAAUUCUGAGGAACCUUGUGUCCAGUUGUUACAAAGUUUAAGCUUUGAACCUAACCUGCAUCCCAUUUCC: 0.305
UUUGUGAGUUCAGCACAGGGCCCAGAAGCUGCUGGUUUUAAAUAUUUACUUUCCCAGGAGGUGGGUUUCUUCAGGUGUUUGUUUAAAGAGGGCUGUCACAGGUGAAUGGU: 1.49
UUUUACAGAAGAAACUAAAAGACAAAGGAAUAUUAAGCACCUGAGGGGUUUUUGUUUGAUUGAUUGUUUGUUUUUGGUAACUUUACAUCAAAUACACAUUUUAUGCUAGA: 0.571
GUCAUUAACAAGAAACAGGAUAUGCUUUAAGACAGAAUUCACUGUCUGUUGCUUCAGUAAAAGGACCUCGGGGAAUAAAACAUUUCUCUCUUAUAUGCCAGAAUGUAGGC: 0.772
